Results of several laboratories.
Each line is one published result; not all experiments were run side by side.
Target: Mitogen-activated protein kinase kinase kinase 9 (MAP3K9, Homo sapiens, UniProt P80192)

Compound = CC(C)=CC1OC(C)(C)C2C=C3C(=O)C(Cl)=CC(O)C3C3C(O)C4OC4C(=O)C132 (stereo not shown); test = cell-free assay, competition with immobilised ligand; setting = 10 µM; endpoint = remaining binding; value = 93%
Compound = CN1CCN(Cc2ccc(-c3ccc(CO[C@H]4CCC[C@@H]4NC(=O)c4cc(-c5cnn(C)c5)cnc4N)cc3)cc2)CC1; test = enzyme activity, inhibitor; setting = 0.1 µM; endpoint = inhibition; value = -8%
Compound = CNC(=O)C[C@H](Cc1ccc(C#N)cc1)NC(=O)c1cc(-c2ccc(CN[C@H](C)c3ccc(C)cc3)o2)ccc1Cl; test = enzyme activity, inhibitor; setting = 1 µM; endpoint = activity vs control; value = 103%
Compound = NC(=O)C[C@H]1CCc2sc3ncnc(O[C@H]4CC[C@H](N5CCOCC5)CC4)c3c21; test = enzyme activity, inhibitor; setting = 10 µM; endpoint = inhibition; value = 7%
Compound = CNC1C[S+]2CC[S+]3CC[S+](C1)[Ru-4]321([N]=C=S)[n]2c3ccc(OC)cc3c3c4c(c5cc(F)c[n+]1c5c32)C(=O)NC4=O (stereo not shown); test = KinomeScan; setting = 0.1 µM; scale = relative to: untreated; endpoint = remaining binding; value = 99%
Compound = CS(=O)(=O)Nc1cccc(-c2csc3cnc(Nc4ccc(N5CCN(CCCCCOc6cccc7c6C(=O)N(C6CCC(=O)NC6=O)C7=O)CC5)cc4)nc23)c1 (stereo not shown); test = probe labelling, inhibitor, KiNativ chemoproteomics; system = MOLT-4; setting = 1 µM; endpoint = inhibition; value = 52.5%
Compound = CNS(=O)(=O)Nc1nccc(Cc2c(C)c3ccc(Oc4ncccc4F)cc3oc2=O)c1F; test = binding, competition with immobilised ligand; setting = 10 µM; endpoint = remaining binding; value = 89%
Compound = COc1ccc(NC(=O)Nc2ccc3c(c2)C(=O)N(C(C)CO)CC(C)C(CN(C)Cc2ccc4c(c2)OCO4)O3)cc1 (stereo not shown); test = kinase activity, KinaseProfiler; setting = 0.03 µM, species human; scale = relative to: control; endpoint = remaining activity; value = 92%
Compound = CC(=O)N1c2ccc(-c3ccc(CNC(=O)c4cn5cc(-c6cnc(N)nc6)nc(N6CCOCC6)c5n4)cc3)cc2CC[C@@H]1C; test = KINOMEscan; setting = 10 µM; endpoint = remaining binding; value = 32%
Compound = O=C(Cc1ccc(OCc2ccccc2)cc1)NC1(C(=O)O)CCN(C(=O)c2ccc(-c3cccc(Cl)c3)cc2)CC1; test = enzyme activity, inhibitor; setting = 10 µM; endpoint = activity vs control; value = 98%
Compound = Nc1ncc(-c2cc(-c3cnn(CC(F)(F)F)c3)ncc2F)nc1C(=O)NC1CNCC(F)C1 (stereo not shown); test = enzyme activity; setting = 1 µM; scale = relative to: DMSO control; endpoint = remaining activity; value = 88.5%
Compound = CCn1cc(C(=O)O)c(=O)c2c(N)c(F)c(NC3CCCCC3)cc21; test = kinase activity; setting = 0.1 µM, together with: ATP at Km; endpoint = inhibition; value = -4.5%
Compound = C=CC(=O)N1Cc2nc(-c3cc(-c4cc(Cl)cnc4Cl)c(F)cc3F)n(-c3ccncn3)c2C1; test = cell-free assay, inhibitor; setting = 1 µM; endpoint = inhibition; value = 11.4%
Compound = COc1c(Cl)cccc1Nc1c(-c2ccncc2C#C[C@@]2(C)CCCN2C(=O)/C=C/CN(C)C)[nH]c2c1C(=O)NCC2; test = binding, competition with immobilised ligand; setting = 3 µM; endpoint = remaining binding; value = 100%
Compound = CN1CCN(Cc2ccc(NC(=O)c3cccc(C#Cc4cnc(N)c5ncccc45)c3)cc2C(F)(F)F)CC1; test = cell-free assay, competition with immobilised ligand; setting = 50 nM; endpoint = remaining binding; value = 83%
Compound = COc1cc(Nc2nccc(-c3cnn4nc(OC)ccc34)n2)cc(C(F)(F)F)c1; test = binding, competition with immobilised ligand; setting = 1 µM; endpoint = remaining binding; value = 100%

Some of these lines once more:
Compound = COc1ccc(NC(=O)Nc2ccc3c(c2)C(=O)N(C(C)CO)CC(C)C(CN(C)Cc2ccc4c(c2)OCO4)O3)cc1 (stereo not shown); test = kinase activity, KinaseProfiler; setting = 0.03 µM, species human; scale = relative to: control; endpoint = remaining activity; value = 92%
